Assay results of several laboratories.
Protocols differ between the studies behind these lines. “And” joins repeats or separate records; there may be more than shown. ± gives the spread as reported.
CGAS catalytic domain; with DNA: Cyclic GMP-AMP synthase, catalytic domain; with DNA (CGAS, Homo sapiens, UniProt Q8N884)
UniProt Q8N884, sequence (whole entry, looked up): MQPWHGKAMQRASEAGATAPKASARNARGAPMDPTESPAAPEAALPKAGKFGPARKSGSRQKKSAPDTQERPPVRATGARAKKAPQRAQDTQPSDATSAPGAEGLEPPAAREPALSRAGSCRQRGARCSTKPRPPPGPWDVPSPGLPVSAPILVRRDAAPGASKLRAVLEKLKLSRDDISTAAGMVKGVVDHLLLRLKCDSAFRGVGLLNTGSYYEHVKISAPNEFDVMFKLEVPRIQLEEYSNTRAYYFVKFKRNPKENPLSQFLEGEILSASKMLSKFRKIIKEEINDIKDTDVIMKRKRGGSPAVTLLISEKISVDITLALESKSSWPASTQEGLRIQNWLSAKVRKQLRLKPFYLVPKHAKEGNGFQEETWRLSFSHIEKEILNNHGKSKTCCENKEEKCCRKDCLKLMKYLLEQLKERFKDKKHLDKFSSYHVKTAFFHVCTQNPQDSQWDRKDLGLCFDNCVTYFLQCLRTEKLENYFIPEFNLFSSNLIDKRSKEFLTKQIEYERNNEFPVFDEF
HTR1D: 5-hydroxytryptamine receptor 1D (HTR1D, Homo sapiens, UniProt P28221)
UniProt P28221, sequence (whole entry, looked up): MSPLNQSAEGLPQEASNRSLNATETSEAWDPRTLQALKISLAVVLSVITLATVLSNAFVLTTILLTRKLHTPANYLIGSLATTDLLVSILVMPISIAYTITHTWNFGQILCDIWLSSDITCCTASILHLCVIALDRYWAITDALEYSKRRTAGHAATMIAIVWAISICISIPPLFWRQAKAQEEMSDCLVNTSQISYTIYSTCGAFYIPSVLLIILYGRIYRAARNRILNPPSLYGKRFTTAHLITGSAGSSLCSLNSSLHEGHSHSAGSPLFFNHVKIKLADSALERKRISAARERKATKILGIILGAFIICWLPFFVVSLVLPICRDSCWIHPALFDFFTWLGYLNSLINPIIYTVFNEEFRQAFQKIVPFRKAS
SCN9A: Sodium channel protein type 9 subunit alpha (SCN9A, Homo sapiens, UniProt Q15858)
UniProt Q8IWT6, sequence (whole entry, unmodified, looked up): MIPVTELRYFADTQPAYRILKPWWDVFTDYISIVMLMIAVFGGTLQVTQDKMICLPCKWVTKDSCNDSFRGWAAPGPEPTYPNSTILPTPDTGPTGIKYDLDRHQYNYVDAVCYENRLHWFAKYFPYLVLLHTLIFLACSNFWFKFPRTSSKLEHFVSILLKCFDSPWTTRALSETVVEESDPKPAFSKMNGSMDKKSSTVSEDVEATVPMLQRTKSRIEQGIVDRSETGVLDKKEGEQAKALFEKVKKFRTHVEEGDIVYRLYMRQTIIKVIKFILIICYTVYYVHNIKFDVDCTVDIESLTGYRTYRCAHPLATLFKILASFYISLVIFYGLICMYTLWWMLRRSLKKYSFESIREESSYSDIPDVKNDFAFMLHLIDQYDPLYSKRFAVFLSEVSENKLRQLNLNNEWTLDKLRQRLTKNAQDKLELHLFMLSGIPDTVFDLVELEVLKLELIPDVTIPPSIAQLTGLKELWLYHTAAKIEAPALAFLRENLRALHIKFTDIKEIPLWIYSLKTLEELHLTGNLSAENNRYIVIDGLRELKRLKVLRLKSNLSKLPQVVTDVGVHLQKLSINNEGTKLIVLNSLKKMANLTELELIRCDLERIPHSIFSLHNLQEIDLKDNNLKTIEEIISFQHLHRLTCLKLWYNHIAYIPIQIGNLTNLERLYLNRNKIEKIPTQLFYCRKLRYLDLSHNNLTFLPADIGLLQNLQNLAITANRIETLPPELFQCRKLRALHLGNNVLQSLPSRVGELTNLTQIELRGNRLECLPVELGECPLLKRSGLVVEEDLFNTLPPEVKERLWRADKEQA
UniProt Q15858, sequence (whole entry, looked up): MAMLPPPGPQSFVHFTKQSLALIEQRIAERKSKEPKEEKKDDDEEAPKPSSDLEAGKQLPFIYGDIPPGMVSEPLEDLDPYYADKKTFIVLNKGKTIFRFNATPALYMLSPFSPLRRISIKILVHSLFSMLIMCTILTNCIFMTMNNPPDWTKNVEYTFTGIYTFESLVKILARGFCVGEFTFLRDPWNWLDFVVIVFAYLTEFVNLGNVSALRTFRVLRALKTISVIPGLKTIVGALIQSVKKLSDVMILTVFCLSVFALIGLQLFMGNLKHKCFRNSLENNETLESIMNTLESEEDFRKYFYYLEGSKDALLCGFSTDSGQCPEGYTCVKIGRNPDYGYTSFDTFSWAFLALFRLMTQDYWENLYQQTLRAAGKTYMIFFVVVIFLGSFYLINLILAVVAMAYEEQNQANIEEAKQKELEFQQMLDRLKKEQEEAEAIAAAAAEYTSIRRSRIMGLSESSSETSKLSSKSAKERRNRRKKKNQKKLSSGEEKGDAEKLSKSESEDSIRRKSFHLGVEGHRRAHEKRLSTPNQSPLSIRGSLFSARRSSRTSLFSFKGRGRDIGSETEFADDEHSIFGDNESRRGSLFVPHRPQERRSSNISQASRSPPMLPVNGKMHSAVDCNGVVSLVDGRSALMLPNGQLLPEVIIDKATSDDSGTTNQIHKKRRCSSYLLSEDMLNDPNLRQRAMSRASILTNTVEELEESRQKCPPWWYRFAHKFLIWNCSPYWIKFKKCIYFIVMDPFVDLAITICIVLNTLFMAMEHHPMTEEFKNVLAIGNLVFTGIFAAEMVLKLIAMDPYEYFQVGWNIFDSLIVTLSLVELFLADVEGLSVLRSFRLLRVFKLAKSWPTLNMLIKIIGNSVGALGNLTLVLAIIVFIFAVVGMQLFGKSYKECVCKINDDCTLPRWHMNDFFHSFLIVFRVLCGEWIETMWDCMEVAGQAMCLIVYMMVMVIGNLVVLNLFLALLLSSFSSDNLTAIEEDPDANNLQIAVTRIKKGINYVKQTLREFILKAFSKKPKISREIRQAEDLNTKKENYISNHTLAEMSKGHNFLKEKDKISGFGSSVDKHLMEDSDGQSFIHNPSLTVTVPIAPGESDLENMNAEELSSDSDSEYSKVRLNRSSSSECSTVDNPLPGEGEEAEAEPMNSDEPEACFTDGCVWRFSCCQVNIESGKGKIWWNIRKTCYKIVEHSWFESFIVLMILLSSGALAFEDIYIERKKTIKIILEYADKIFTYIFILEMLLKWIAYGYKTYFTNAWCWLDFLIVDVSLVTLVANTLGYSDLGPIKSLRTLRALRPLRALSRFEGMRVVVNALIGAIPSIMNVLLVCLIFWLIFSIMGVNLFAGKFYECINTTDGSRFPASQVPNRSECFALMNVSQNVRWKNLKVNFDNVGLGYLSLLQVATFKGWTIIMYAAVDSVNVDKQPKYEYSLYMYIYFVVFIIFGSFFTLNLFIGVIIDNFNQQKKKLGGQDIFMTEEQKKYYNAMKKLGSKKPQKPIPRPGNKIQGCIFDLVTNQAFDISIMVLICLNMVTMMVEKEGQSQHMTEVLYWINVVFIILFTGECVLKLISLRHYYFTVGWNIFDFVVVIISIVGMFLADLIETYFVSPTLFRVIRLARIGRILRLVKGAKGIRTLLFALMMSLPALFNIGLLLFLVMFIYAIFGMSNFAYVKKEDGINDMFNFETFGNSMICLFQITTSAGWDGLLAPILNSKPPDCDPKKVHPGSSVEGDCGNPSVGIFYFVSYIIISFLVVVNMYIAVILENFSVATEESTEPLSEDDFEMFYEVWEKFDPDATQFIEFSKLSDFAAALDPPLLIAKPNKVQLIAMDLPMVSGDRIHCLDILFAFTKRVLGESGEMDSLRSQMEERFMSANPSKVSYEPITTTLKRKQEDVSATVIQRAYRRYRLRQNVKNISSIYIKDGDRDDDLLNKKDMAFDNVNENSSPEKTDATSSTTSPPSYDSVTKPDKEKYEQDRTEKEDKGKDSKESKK

SMILES	target	assay	system	setting	inhibition
COc1cc(C2=CCCCc3c2ccc(OC)c3OC(C)c2ccc([N+](=O)[O-])s2)cc(OC)c1OC (centres unmarked)	tubulin	colchicine binding	–	5 µM, together with: 5.0 µM [3H]colchicine	4.7 ± 2%
CC1=NN(c2cccc(C)c2)C(=O)C1=NNc1ccc(S(N)(=O)=O)cc1	bovine α-glucosidase	enzyme activity, inhibitor, glucose oxidase	–	100 µg/mL, together with: maltose	33.3%
COc1cc(C(=O)NS(=O)(=O)c2ccccc2C)ccc1Cc1cn(C)c2ccc(NC(=O)OC3CCCC3)cc12	Volume-regulated anion channel subunit LRRC8C, part LRRC8A IL1 chimera (LRRC8C, Homo sapiens, UniProt Q8TDW0, L136K)	ion current, inhibitor, whole-cell patch clamp	HCT LRRC8-/- cells	0.3 µM, +100 mV	77.4% and 53.1% and 70.1% and 62.9% and 73.1%
CC[C@@H]1[C@H](F)C(=O)N[C@@H]1COc1nccc2cc(C(N)=O)c(OC)cc12	CDK10 (Homo sapiens, UniProt Q15131)	ATP-site probe binding, ActivX profiling	THP-1 cell lysate	0.2 mM, Lys2 site	-14.2%
Cc1cc2c(cc1N1C(=O)c3cccc4c(CCCO)ccc(c34)C1=O)n(C)c(=O)n2C (racemic)	BAZ2A (Homo sapiens, UniProt Q9UIF9)	binding, BROMOscan binding	–	100 nM	53%
CC1=NN(c2cc(Cl)ccc2Cl)C(=O)C1=NNc1ccc(S(N)(=O)=O)cc1	bovine α-glucosidase	enzyme activity, inhibitor, glucose oxidase	–	50 µg/mL, together with: maltose	30.7%
Ic1cccc2cnccc12	L-type calcium channel (rat)	dihydropyridine site binding, radioligand binding	–	10 µM	6%
COc1cc(C2=CCCc3c2ccc(OC)c3OCc2ccc([N+](=O)[O-])s2)cc(OC)c1OC	tubulin	colchicine binding	–	5 µM, together with: 5.0 µM [3H]colchicine	9.2 ± 5%
Cc1nn(-c2nc3c(F)cc(F)cc3s2)c(O)c1C(c1cccc(C(F)(F)F)c1)c1c(C)nn(-c2nc3c(F)cc(F)cc3s2)c1O	CGAS catalytic domain; with DNA	cGAS phase separation, inhibitor	–	0.781 µM	21.7%
COc1cc(-c2cc(C(C)=O)n3ccccc23)cc(OC)c1Cn1ccnc1	BRD7 (Homo sapiens, UniProt Q9NPI1)	–	–	1 µM	90.5%
Cc1nc(Nc2ncc(C(=O)Nc3c(C)cccc3Cl)s2)cc(N2CC[C@H](O)C2)n1	SRC (Homo sapiens, UniProt P12931)	–	–	0.001 µM	97%
O=c1c(O)cc([C@H]2Oc3cc(O)cc(O)c3C[C@H]2O)cc2c([C@H]3Oc4cc(O)cc(O)c4C[C@H]3O)cc(O)c(O)c12	alpha-amylase	enzyme activity, inhibitor, DNS method	–	250 µg/mL, together with: soluble starch	84.5%
CC[C@]12CCCN3CCc4c([nH]c5ccccc45)[C@]31N(Cc1cn(Cc3ccccc3)nn1)C(=O)C2	PTGIR (Homo sapiens, UniProt P43119)	beta-arrestin recruitment, antagonist, PathHunter chemiluminescence	–	20 µM, together with: agonist at EC80	75%
CC1=NN(c2ccc(C)cc2)C(=O)C1=NNc1ccc(S(N)(=O)=O)cc1	bovine α-glucosidase	enzyme activity, inhibitor, glucose oxidase	–	100 µg/mL, together with: maltose	35.1%
Cc1nc(Nc2ncc(C(=O)Nc3c(C)cccc3Cl)s2)cc(N2CCN(CCO)CC2)n1	ERBB2 (Homo sapiens, UniProt P04626)	kinase activity, inhibitor, Kinase-Glo MAX	–	0.01 µM	38.3%
COc1ccc2c(c1)CN(CCCN1CCN(c3ccccc3OC)CC1)C2=O	HTR1D	radioligand binding	–	concentration not given, together with: [3H]5-CT	79%
NC/C(=C\F)COc1cccc(Cn2c(=S)[nH]c(=O)c3[nH]cnc32)c1	Amine oxidase [copper-containing] 3 (Rattus norvegicus, UniProt O08590)	–	rat adipose tissue	0.1111 µM	94.8%
CN1CCN(c2cc(-c3ccncc3)c(-c3ccc4ccccc4c3)nn2)CC1	PTGER3 (Homo sapiens, UniProt P43115)	antagonist, FLIPR	–	10 µM	3.5%
CC1=NN(c2ccc(Cl)cc2)C(=O)C1=NNc1ccc(S(N)(=O)=O)cc1	bovine α-glucosidase	enzyme activity, inhibitor, glucose oxidase	–	10 µg/mL, together with: maltose	25.065 ± 0.000444%
O=C1c2ccccc2CCCN1CCCCN1CCN(c2ccccn2)CC1	HTR1D	radioligand binding	–	concentration not given, together with: [3H]5-CT	77%
O=C(NO)c1ccc(CN2CCCCc3ccccc32)c(F)c1	HTR1D	radioligand binding, radioligand displacement	–	10 µM, mean of replicates	-22.1%
CC(C)(Nc1nc(-c2ccccn2)nc2ccccc12)c1ccccn1	panel of 300 kinases	TR-FRET binding	–	1 µM, across all kinases	< 50%

SMILES	target	assay	system	setting	inhibition
Clc1cncc(OC[C@H]2CN(CCN3CCc4ccccc43)CCO2)c1	HTR1D	radioligand binding	–	concentration not given, together with: [3H]5-CT	35.4%
NC(=O)c1nnn(Cc2cc(Cl)c(C(=O)c3ccc(Cl)cc3)c(Cl)c2)c1N	CACNA1C (Homo sapiens, UniProt Q13936)	calcium channel current, blocker	–	concentration not given	inhibited
O=C(Nc1ccc(S(=O)(=O)N2CCC(Cl)CC2)cc1)c1ccc([N+](=O)[O-])o1	rat GABAA receptor	muscimol radioligand binding	brain	10 µM	21%
Cc1ncccc1OC[C@@H]1CN(CCN2CCc3ccccc32)CCO1	HTR1D	radioligand binding	–	concentration not given, together with: [3H]5-CT	33.2%
O=C(Nc1cccc2c(=O)cc(-c3nnn[nH]3)oc12)c1ccc(OCCCCc2ccccc2)cc1	LRRC8A/LRRC8C (Homo sapiens, UniProt Q8IWT6+Q8TDW0, Y124F/Y126F)	ion current, whole-cell patch clamp	HCT LRRC8-/- cells	10 µM, -100 mV, Y124F/Y126F heteromers	70.5% and 13.9% and 6.41% and 1.54% and -5.84% and 19.5%
COc1cc(Cl)c(C(=O)N[C@@H](CN[C@H]2CC[C@@H](N)CC2)Cc2ccc(C#N)cc2)cc1-c1ccc(CN[C@H](C)c2ccc(C)cc2)o1	HRH3 (Homo sapiens, UniProt Q9Y5N1)	agonist response, antagonist	human cells	10 µM, H3 antagonist	9%
CC1=NN(c2cccc([N+](=O)[O-])c2)C(=O)C1=NNc1ccc(S(N)(=O)=O)cc1	bovine α-glucosidase	enzyme activity, inhibitor, glucose oxidase	–	50 µg/mL, together with: maltose	45.2%
Cc1nn(-c2nc3ccc(Cl)c(Cl)c3[nH]2)c(O)c1C1OC(=O)c2ccccc21 (centres unmarked)	Cgas (Mus musculus, UniProt Q8C6L5)	enzyme activity, inhibitor, pyrophosphatase-coupled	–	4 µM, 1.5 h, mouse enzyme	101%
O=C(CN1CCO[C@H](COc2cccc(Cl)c2)C1)N1CCc2ccccc21	HTR1D	radioligand binding	–	concentration not given, together with: [3H]5-CT	18.9%
CC(C)c1noc2ncc(C(=O)c3ccccc3O)cc12	SCN9A	ion current, whole-cell patch-clamp	–	10 µM, hNaV1.7	11.3%
CCS(=O)(=O)c1nc(S(=O)(=O)c2ccccc2Cl)c(N2CCN(C)C(=O)[C@H]2C)s1	HTR1D	–	–	10 µM	31.5%
c1ccc(OC[C@@H]2CN(CCN3CCc4ccccc43)CCO2)cc1	HTR1D	radioligand binding	–	concentration not given, together with: [3H]5-CT	76.8%
CC(C)C[C@H](NC(=O)[C@@H](NC(=O)[C@@H](N)Cc1ccccc1)C(C)C)C(=O)N[C@@H](CC(=O)O)C(=O)O	MAOB (Homo sapiens, UniProt P27338)	inhibitor, fluorometric	–	410 µM	21%
Cc1nn(-c2nc3c(F)cc(F)cc3s2)c(O)c1C(c1ccc(C(F)(F)F)cc1)c1c(C)nn(-c2nc3c(F)cc(F)cc3s2)c1O	CGAS catalytic domain; with DNA	cGAS phase separation, inhibitor	–	1.563 µM	21.1%
CC1=NOC(=O)C1=NNc1ccc(S(N)(=O)=O)cc1	bovine α-glucosidase	enzyme activity, inhibitor, glucose oxidase	–	50 µg/mL, together with: maltose	35.4%
Cc1ccc(C(=O)Nc2ccc3ccccc3c2)o1	SCN9A	ion current, inhibitor, whole-cell patch clamp	–	10 µM	0.8% and 6.47% and 2.1% and 3.2% and 8.32%
Cc1c(-c2ccccc2)oc2ccccc2c1=O	LRRC8A (Homo sapiens, UniProt Q8IWT6)	ion current, inhibitor	HEK293	30 µM, together with: hypotonic stimulation	~35%
CC1=NNC(=O)C1=NNc1ccc(S(N)(=O)=O)cc1	bovine α-glucosidase	enzyme activity, inhibitor, glucose oxidase	–	10 µg/mL, together with: maltose	24.548 ± 0.00117%
Clc1cccc(OC[C@H]2CN(CCN3CCc4ccccc43)CCO2)c1	HTR1D	radioligand binding	–	concentration not given, together with: [3H]5-CT	33.2%
C[C@H](NC(=O)Cc1cc(F)cc(F)c1)C(=O)N[C@H](C(=O)OC(C)(C)C)c1ccccc1	Presenilin-1, in γ-secretase complex (PSEN1, Homo sapiens, UniProt P49768)	N1-Sb1 substrate cleavage, inhibitor, AlphaLISA	cells	concentration not given	94%
CC1=NN(c2ccccc2)C(=O)C1=NNc1ccc(S(N)(=O)=O)cc1	bovine α-glucosidase	enzyme activity, inhibitor, glucose oxidase	–	10 µg/mL, together with: maltose	35.142 ± 0.00179%
O=C(CN1CCO[C@@H](COc2cccnc2)C1)N1CCc2ccccc21	HTR1D	radioligand binding	–	concentration not given, together with: [3H]5-CT	-5.2%
